Results pooled from the literature.
Lines come from different studies, so protocols differ. Values joined by “and” are separate records of one study, mostly repeats; a detail may differ. ± marks the error that the study gave.

`O=C(NCC1OC2CCC=CCCC2O1)c1ccc([18F])nc1` (stereo not drawn) has a tissue uptake of 1.9 ± 0.3 %ID/g (healthy female BALB/c nude mice, muscle; intravenous, 7.4 MBq per mouse, 2 min).
`Cc1cc(C)n(CCN(CCN)CCCCCCNC(=O)[C@@H](N)Cc2c[nH]cn2)n1.[99Tc+].[C-]#[O+].[C-]#[O+].[C-]#[O+]` gave a tissue uptake of 0.35 ± 0.03 %ID/g (BALB/c nude mice MCF7 xenograft, tumor; intravenous, 15 min).
`COc1ccc(Nc2nc(Nc3ccc(OCCOCC[18F])cc3)ncc2Br)cc1` gave a tissue uptake of 5.62 ± 0.27 %ID/g (ICR mice, S180 tumour-bearing, kidney; intravenous, 370 kBq, 15 min).
`CC[C@H](C)[C@H](NC(=O)C[C@H](NC(=O)CN1CCN2CCN(CC1)CC(=O)[O][Al]([18F])[O]C(=O)C2)C(=O)O)C(=O)N[C@H]1CCc2cccc3c2N(C1=O)[C@H](C(=O)NCc1cn[nH]n1)C3` has a tissue uptake of 4.3 ± 0.98 %ID/g (C57BL/6J mice, MC-38 tumour, anti-PD-1 treated, kidney; 0.5 h).
The tissue uptake of `CC(C)c1noc(C2CCN(c3ncnc(Nc4ccc(OCC[18F])cc4)c3[N+](=O)[O-])CC2)n1` is reported as 3.37 ± 1.02 %ID/g (ex vivo biodistribution after PET; C57BL/J male mice, liver; 60 min).
With `CN(O)C(=O)CCC(=O)NCCCN(CCCCN(CCCNC(=O)CCC(=O)N(C)O)C(=O)CCC(=O)N(C)O)C(=O)CCC(=O)N(C)O.[89Zr]` the tissue uptake was 0.54 ± 0.21 %ID/g (gamma counting; healthy Balb/c mice, adrenal; intravenous, 1 h, 89Zr-labelled complex).
For `O=C(NCC1OC2CCC=CCCC2O1)c1ccc(COCCOCCOCC[18F])cc1` (stereo not drawn), the tissue uptake was 9 ± 1.5 %ID/g (healthy female BALB/c nude mice, kidneys; intravenous, 7.4 MBq per mouse, 30 min).
`COc1ccc2c(c1)C(C)(C)C(/C=C/C1=C(Oc3ccc(C(=O)NCCCCOc4cc(CN(Cc5ccccn5)Cc5ccccn5)cc(CN(Cc5ccccn5)Cc5ccccn5)c4)cc3)C(=C/C=C3/N(CCCCS(=O)(=O)[O-])c4ccc(OC)cc4C3(C)C)CCC1)=[N+]2CCCCS(=O)(=O)[O-].O=[N+]([O-])[O-].O=[N+]([O-])[O-].[99Tc+].[C-]#[O+].[C-]#[O+].[C-]#[O+].[Zn+2]` has a tissue uptake of 0.76 %ID/g and 0.58 %ID/g and 2.41 %ID/g (BALB/c mice, healthy, urine and bladder; 12 h post-injection).
`N#C[C@@H]1CCCN1C(=O)CNC(=O)c1ccnc2ccc(OCCCN3CCN(C(=O)CCc4ccc(O)c(CN5CCN6CC(=O)[O][Al-]([18F])([O]C(=O)C5)[O]c5ccc(CCC(=O)N7CCN(CCCOc8ccc9nccc(C(=O)NCC(=O)N%10CCC[C@H]%10C#N)c9c8)CC7)cc5C6)c4)CC3)cc12` (stereo partly drawn) gave a tissue uptake of 0.94 ± 0.17 %ID/g (BALB/c nude mice, U-87 MG xenograft, spleen; 2 h).
`CC(=O)N([O-])CCCCCNC(=O)CCC(=O)N([O-])CCCCCNC(=O)CCC(=O)N([O-])CCCCCN.[89Zr+4]` has a tissue uptake of 0.09 ± 0.04 %ID/g (gamma counting; healthy Balb/c mice, plasma; intravenous, 4 h, 89Zr-labelled complex).
`COc1ccc(Nc2nc(Nc3ccc(OCCOCCOCC[18F])cc3)ncc2Br)cc1` has a tissue uptake of 0.98 ± 0.07 %ID/g (ICR mice, S180 tumour-bearing, spleen; intravenous, 370 kBq, 120 min).
With `Cc1nc(N)nc2c1C(=O)N[C@@H](c1ccc(F)cc1-c1cccc(OCC[18F])n1)C2` the tissue uptake was 31.8 ± 1.1 %ID (ex vivo biodistribution; C57BL/6 mice, muscle; intravenous, 1 MBq, 30 min).
